# Published values of several laboratories.
# Protocols differ between the studies behind these lines.
# Target: Proto-oncogene tyrosine-protein kinase ROS (ROS1, Homo sapiens, UniProt P08922)
# Chain of UniProt P08922 (whole entry, looked up): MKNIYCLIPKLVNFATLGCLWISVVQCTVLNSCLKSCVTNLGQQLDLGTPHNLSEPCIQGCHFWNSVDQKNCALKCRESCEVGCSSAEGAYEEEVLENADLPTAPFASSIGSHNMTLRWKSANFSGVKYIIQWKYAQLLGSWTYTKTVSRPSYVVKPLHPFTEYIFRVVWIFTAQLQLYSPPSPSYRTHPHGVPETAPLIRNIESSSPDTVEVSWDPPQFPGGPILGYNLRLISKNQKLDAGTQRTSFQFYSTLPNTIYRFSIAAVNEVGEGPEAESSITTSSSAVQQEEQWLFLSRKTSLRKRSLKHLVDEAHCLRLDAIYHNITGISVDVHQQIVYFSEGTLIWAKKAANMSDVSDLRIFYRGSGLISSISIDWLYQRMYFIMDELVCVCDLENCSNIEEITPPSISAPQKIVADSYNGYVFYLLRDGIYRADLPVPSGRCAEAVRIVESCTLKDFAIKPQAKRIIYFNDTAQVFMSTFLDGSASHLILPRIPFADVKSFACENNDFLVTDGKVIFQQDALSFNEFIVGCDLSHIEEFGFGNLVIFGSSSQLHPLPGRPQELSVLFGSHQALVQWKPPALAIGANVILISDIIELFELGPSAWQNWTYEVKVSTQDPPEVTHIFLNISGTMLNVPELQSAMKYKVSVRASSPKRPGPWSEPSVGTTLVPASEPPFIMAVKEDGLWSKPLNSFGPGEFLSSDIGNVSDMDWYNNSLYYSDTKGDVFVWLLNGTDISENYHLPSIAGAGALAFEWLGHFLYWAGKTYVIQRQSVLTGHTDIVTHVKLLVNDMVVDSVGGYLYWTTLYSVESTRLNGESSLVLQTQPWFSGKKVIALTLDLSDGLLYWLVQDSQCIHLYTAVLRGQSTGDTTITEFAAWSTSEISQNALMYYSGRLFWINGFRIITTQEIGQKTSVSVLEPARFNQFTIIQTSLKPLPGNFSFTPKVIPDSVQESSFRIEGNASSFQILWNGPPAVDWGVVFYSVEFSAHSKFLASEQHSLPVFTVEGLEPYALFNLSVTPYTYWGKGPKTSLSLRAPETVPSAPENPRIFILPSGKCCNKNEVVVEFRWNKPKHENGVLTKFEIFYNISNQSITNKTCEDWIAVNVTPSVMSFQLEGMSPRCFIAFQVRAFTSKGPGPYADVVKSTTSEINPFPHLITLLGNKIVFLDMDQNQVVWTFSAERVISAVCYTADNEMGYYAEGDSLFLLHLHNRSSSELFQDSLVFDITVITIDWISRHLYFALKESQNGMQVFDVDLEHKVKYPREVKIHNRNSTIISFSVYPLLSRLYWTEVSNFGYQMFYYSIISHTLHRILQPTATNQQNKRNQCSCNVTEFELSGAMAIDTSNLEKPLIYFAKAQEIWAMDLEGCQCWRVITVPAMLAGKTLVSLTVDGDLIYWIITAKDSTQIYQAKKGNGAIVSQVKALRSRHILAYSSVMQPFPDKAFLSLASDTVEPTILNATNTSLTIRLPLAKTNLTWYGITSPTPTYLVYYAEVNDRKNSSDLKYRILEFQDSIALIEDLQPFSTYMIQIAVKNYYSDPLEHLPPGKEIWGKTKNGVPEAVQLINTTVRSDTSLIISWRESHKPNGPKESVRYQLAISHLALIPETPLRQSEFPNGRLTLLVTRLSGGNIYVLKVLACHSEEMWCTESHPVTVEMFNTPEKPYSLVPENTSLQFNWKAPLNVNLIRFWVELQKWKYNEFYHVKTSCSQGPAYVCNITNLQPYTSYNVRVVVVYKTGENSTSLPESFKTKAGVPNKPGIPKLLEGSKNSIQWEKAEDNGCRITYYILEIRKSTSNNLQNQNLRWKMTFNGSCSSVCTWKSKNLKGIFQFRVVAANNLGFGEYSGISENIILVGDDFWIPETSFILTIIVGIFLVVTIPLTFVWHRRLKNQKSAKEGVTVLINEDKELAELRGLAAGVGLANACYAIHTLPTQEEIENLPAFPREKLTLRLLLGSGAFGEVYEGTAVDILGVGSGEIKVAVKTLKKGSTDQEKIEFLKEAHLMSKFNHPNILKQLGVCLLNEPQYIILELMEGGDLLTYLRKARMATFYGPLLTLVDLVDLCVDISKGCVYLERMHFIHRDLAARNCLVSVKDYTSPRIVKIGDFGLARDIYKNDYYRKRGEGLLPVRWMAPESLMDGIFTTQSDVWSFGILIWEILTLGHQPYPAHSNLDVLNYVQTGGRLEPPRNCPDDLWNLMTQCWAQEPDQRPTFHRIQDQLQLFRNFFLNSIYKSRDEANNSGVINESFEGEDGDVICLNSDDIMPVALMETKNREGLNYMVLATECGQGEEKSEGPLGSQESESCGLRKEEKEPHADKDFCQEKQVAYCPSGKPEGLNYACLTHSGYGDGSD
Structure (SMILES),assay,conditions,how to read,quantity,result
Cc1cnc2nc1Nc1cccc(c1)COC/C=C/COCc1cc(ccc1OCCN1CCOCC1)N2,"binding, competition with immobilised ligand",0.1 µM,,remaining binding,63%
COc1cc(Nc2nc(C)cc(-c3cnn4nc(OC)ccc34)n2)cc(C(F)(F)F)c1,"binding, competition with immobilised ligand",1 µM,,remaining binding,91%
NC(=O)C[C@H]1CCc2sc3ncnc(O[C@H]4CC[C@H](N5CCOCC5)CC4)c3c21,"enzyme activity, inhibitor",10 µM,,inhibition,28%
O=C(Nc1ccc(Oc2ncnc3[nH]cc(-c4ccccc4)c23)c(F)c1)c1c2n(n(-c3cc(F)ccc3F)c1=O)CCCC2,"enzyme activity, inhibitor",0.5 µM,,inhibition,-7%
Cc1ccc(-c2c(/C=C(\C#N)C(=O)NC(C)C)n(CCCO)c3ncnc(N)c23)cc1,"cell-free assay, competition with immobilised ligand",1 µM,,remaining binding,88%
CNC(=O)C1CCN(c2cc(C)c(F)cc2NC(=O)c2ccc(-c3cc(O)ccc3C)c(C)c2)CC1,"binding, competition with immobilised ligand",1 µM,,remaining binding,94%
COc1c(OCCCN2CCOCC2)ccc2c1N=C(NC(=O)c1cnc(N)nc1)N1CCN=C21,"kinase activity, inhibitor",1 µM,reference: untreated control,remaining activity,109%
C=CC(=O)Nc1cccc(-c2cnc3[nH]cc(C(=O)NC(C)(C)C)c3n2)c1,"enzyme activity, inhibitor",0.1 µM,,inhibition,3%
Nc1ncc(-c2cc(-c3cnn(CC(F)(F)F)c3)ncc2F)nc1C(=O)NC1CNCC(F)C1 (stereo not drawn),enzyme activity,1 µM,reference: DMSO control,remaining activity,26.9%
CNC1C[S+]2CC[S+]3CC[S+](C1)[Ru-4]321([N]=C=S)[n]2c3ccc(OC)cc3c3c4c(c5cc(F)c[n+]1c5c32)C(=O)NC4=O (stereo not drawn),KinomeScan,0.1 µM,reference: untreated,remaining binding,100%
Cc1cccc(O[C@H]2CCC[C@@H](C(C)CNCc3ccncc3)C2)c1 (relative stereo),cell-free assay,1 µM,,inhibition,5%
O=c1c(-c2ccc(Cl)c(CN3CCOCC3)c2)coc2cc(O)ccc12,"enzyme activity, inhibitor",1 µM,,remaining activity,104%
CCN1CCN(Cc2ccc(C(=O)Nc3ccc(C)c(NCc4cnc5[nH]ccc5c4OC)c3)cc2C(F)(F)F)CC1,"binding, competition with immobilised ligand",1 µM,,remaining binding,97%
CCn1cc(C(=O)O)c(=O)c2c(N)c(F)c(NC3CCCCC3)cc21,kinase activity,"0.1 µM, with: ATP at Km",,inhibition,0.5%
CC(C)=CC1OC(C)(C)C2C=C3C(=O)C(Cl)=CC(O)C3C3C(O)C4OC4C(=O)C132 (stereo not drawn),"cell-free assay, competition with immobilised ligand",10 µM,,remaining binding,98%

# Excerpt of the above:
Structure (SMILES),assay,conditions,how to read,quantity,result
Cc1ccc(-c2c(/C=C(\C#N)C(=O)NC(C)C)n(CCCO)c3ncnc(N)c23)cc1,"cell-free assay, competition with immobilised ligand",1 µM,,remaining binding,88%
CNC(=O)C1CCN(c2cc(C)c(F)cc2NC(=O)c2ccc(-c3cc(O)ccc3C)c(C)c2)CC1,"binding, competition with immobilised ligand",1 µM,,remaining binding,94%
